# Earlier results as cited in several papers.
# Lines come from different studies, so protocols differ. Values joined by “and” are separate records of one study, mostly repeats; a detail may differ. Numbers after ± are the reported error.
SMILES,target or system,test,test system,conditions,scale,measurement,result
c1ccc(COc2ccc(Nc3ncnc4ccc(-c5cccc(N6CCOCC6)c5)cc34)cc2)cc1,Trypanosoma brucei,parasite growth,,,,EC50,180 nM
CCCCCCCCCC(=O)NC1CCCC1,Pseudomonas aeruginosa,,PAO1,50 µM,,pyocyanin inhibition,50%
c1cnc2[nH]cc(C3NCCc4sccc43)c2c1 (centres unmarked),Escherichia coli,efflux pump inhibition,AG100A AcrAB-TolC deleted,50 µM,reference: untreated cells,relative fluorescence index,0.29
NS(=O)(=O)c1nnc(NC(=O)C2CCCCC2)s1,Enterococcus,,"vancomycin-resistant, three strains",range across strains,,MIC,861 to 1720 nM
COc1ccc(Nc2nc(Nc3ccc(OCC[18F])cc3)ncc2Br)cc1,,,S180 tumour-bearing mice,"intravenous, 60 min",reference: tumour over muscle,tumour to tissue ratio,1.64
O=S(=O)(c1ccc(-c2ccc3ncnc(Nc4ccc(OCc5cccc(F)c5)c(Cl)c4)c3c2)cc1)N1CCOCC1,Trypanosoma brucei,parasite growth,,,,EC50,1300 nM
O=C1C=C(Br)/C(=C/Br)O1,Pseudomonas aeruginosa,exoprotease production,PAO1,10 µM,,inhibition,80%
c1ccc2c(c1)CCCNC2c1c[nH]c2ncccc12 (centres unmarked),Escherichia coli,efflux pump inhibition,AG100A AcrAB-TolC deleted,50 µM,reference: untreated cells,relative fluorescence index,0.57
COc1ccc(Nc2ncnc3ccc(-c4ccc(S(=O)(=O)N5CCN(C)CC5)cc4)cc23)cc1Cl,Trypanosoma brucei,parasite growth,,,,EC50,780 nM
CCN(CC)CC#CCNc1ccnc2cc(Cl)ccc12,Plasmodium falciparum,"parasite growth, SYBR Green I",K1,,,IC50,47.9 nM and 52.1 nM
CC(C)C[C@@H](NC(=O)[C@H](C)NC(=O)CNC(=O)[C@@H](NC=O)C(C)C)C(=O)N[C@@H](C)C(=O)N[C@@H](C(=O)N[C@H](C(=O)N[C@@H](C(=O)N[C@@H](Cc1c[nH]c2ccccc12)C(=O)N[C@H](CC(C)C)C(=O)N[C@@H](Cc1c[nH]c2ccccc12)C(=O)N[C@H](CC(C)C)C(=O)N[C@@H](Cc1c[nH]c2ccccc12)C(=O)N[C@H](CC(C)C)C(=O)N[C@@H](Cc1c[nH]c2ccccc12)C(=O)NCCO)C(C)C)C(C)C)C(C)C,Streptococcus pneumoniae,,NBRC 102642,,,MIC,8.3 nM
CN1CCN(C(=O)c2cccc(CC(O)Cn3c4ccc(Cl)cc4c4cc(Cl)ccc43)c2)CC1 (centres unmarked),Plasmodium,parasite growth,,,,IC50,1130 nM
CCCCCCCCCC(=O)CC(=O)Nc1cccc(OC)c1,Pseudomonas aeruginosa,,PAO1,50 µM,,pyocyanin inhibition,75%
c1ccc2c(c1)CCNC2c1c[nH]c2cnccc12 (centres unmarked),Escherichia coli,efflux pump inhibition,AG100A AcrAB-TolC deleted,50 µM,reference: untreated cells,relative fluorescence index,0.53
Fc1cccc(COc2ccc(Nc3ncnc4ccc(-c5ccc(N6CCCCC6)cc5)cc34)cc2Cl)c1,Trypanosoma brucei,parasite growth,,,,EC50,380 nM
CCOC(=O)[C@H]1c2c(ccc3ccccc23)O[C@@H]2c3[nH]c4ccccc4c3CCN21,Staphylococcus aureus,efflux pump inhibition,ATCC 25923,100 µM,reference: untreated cells,relative fluorescence index,0.05
O=C(C=C(O)C(F)(F)C(F)(F)F)c1ccco1,Plasmodium falciparum,parasite growth,3D7,,,EC50,1980 ± 40 nM
NS(=O)(=O)c1nnc(NC(=O)CCC2CCCCC2)s1,Enterococcus faecium,,HM-965,,,MIC,22 nM
O=C(CCCOc1cccc(Br)c1)N[C@H]1CCSC1=O,Pseudomonas aeruginosa,biofilm flow-chamber clogging time,PA14,concentration not given,,reduction,60%
c1ccc2c(c1)CCNC2c1c[nH]c2ccncc12 (centres unmarked),Escherichia coli,efflux pump inhibition,AG100A AcrAB-TolC deleted,50 µM,reference: untreated cells,relative fluorescence index,0.42
Fc1cccc(COc2ccc(Nc3ncnc4ccc(-c5cccc(N6CCCCC6)c5)cc34)cc2Cl)c1,Trypanosoma brucei,parasite growth,,,,EC50,760 nM
CNC1CCCC(CC(O)Cn2c3ccc(Cl)cc3c3cc(Cl)ccc32)C1 (centres unmarked),Plasmodium,parasite growth,,,,IC50,86 nM
CN[C@H](CC(C)C)C(=O)N[C@H]1C(=O)N[C@@H](CC(N)=O)C(=O)N[C@H]2C(=O)N[C@H]3C(=O)N[C@H](C(=O)N[C@H](C(=O)O)c4cc(O)cc(O)c4-c4cc3ccc4O)[C@H](O)c3ccc(c(Cl)c3)Oc3cc2cc(c3O[C@@H]2O[C@H](CO)[C@@H](O)[C@H](O)[C@H]2O[C@H]2C[C@](C)(N)[C@H](O)[C@H](C)O2)Oc2ccc(cc2Cl)[C@H]1O,Listeria monocytogenes,,10403S,,,MIC,340 nM
[2H]C([2H])([2H])C1(C([2H])([2H])[2H])NC(=O)N(c2ccc(F)c(C(C)(F)F)c2)C1=O,Schistosoma mansoni,,"juvenile, infected mice","oral, 100 mg/kg single dose",,worm burden reduction,62 to 100% and 100%
CN1CCN(c2cccc(-c3ccc4ncnc(Nc5ccc(OCc6cccc(F)c6)c(Cl)c5)c4c3)c2)CC1,Trypanosoma brucei,parasite growth,,,,EC50,550 nM
O=C(NC1CCc2ccccc21)C1CCN(c2ncccc2-c2nc(-c3ccccc3)no2)CC1 (centres unmarked),Plasmodium,parasite growth,,,,IC50,1110 nM
c1ccc2c(c1)CCNC2c1c[nH]c2cccnc12 (centres unmarked),Staphylococcus aureus,efflux pump inhibition,ATCC 25923,50 µM,reference: untreated cells,relative fluorescence index,-0.14
CN(C)CCC(O)Cn1c2ccc(Br)cc2c2cc(Br)ccc21 (centres unmarked),Plasmodium,parasite growth,,,,IC50,1670 nM
NS(=O)(=O)c1nnc(NC(=O)CCc2ccccc2)s1,Enterococcus faecium,,HM-965,,,MIC,192 nM
CN1CCN(S(=O)(=O)c2ccc(-c3ccc4ncnc(Nc5ccc(OCc6ccccc6)cc5)c4c3)cc2)CC1,Trypanosoma brucei,parasite growth,,,,EC50,630 nM
c1ccc2c3c([nH]c2c1)C(c1c[nH]c2ncccc12)NCC3 (centres unmarked),Staphylococcus aureus,efflux pump inhibition,ATCC 25923,50 µM,reference: untreated cells,relative fluorescence index,-0.25
Cc1nnc(-c2nn(-c3ccc(C(=O)N4CCCC(C)C4)cc3)c(-c3ccc(F)cc3)c2C)o1 (centres unmarked),Plasmodium,parasite growth,,,,IC50,5550 nM
Fc1cccc(COc2ccc(Nc3ncnc4ccc(-c5cccc(CN6CCCCC6)c5)cc34)cc2Cl)c1,Trypanosoma brucei,parasite growth,,,,EC50,650 nM
CN1CCN(Cc2cccc(CC(O)Cn3c4ccc(Cl)cc4c4cc(Cl)ccc43)c2)CC1 (centres unmarked),Plasmodium,parasite growth,,,,IC50,82 nM
O=C(CCCCCONC(=O)c1ccc2cc[nH]c2c1)NO,Plasmodium falciparum,parasite growth,3D7,,,IC50,90 nM and < 100 nM
O=C(Cc1ccc(Br)cc1)N[C@H]1CCOC1=O,Pseudomonas aeruginosa,biofilm formation,PAO1,50 µM,,inhibition,40%
NS(=O)(=O)c1nnc(NC(=O)c2ccccc2)s1,Enterococcus faecium,,HM-965,,,MIC,5200 nM
CCOC(=O)[C@H]1c2c(ccc3ccccc23)O[C@@H]2c3ccsc3CCN21,Staphylococcus aureus,efflux pump inhibition,ATCC 25923,100 µM,reference: untreated cells,relative fluorescence index,0.22
CC(C)C[C@@H](NC(=O)[C@H](C)NC(=O)CNC(=O)[C@@H](NC=O)C(C)C)C(=O)N[C@@H](C)C(=O)N[C@@H](C(=O)N[C@H](C(=O)N[C@@H](C(=O)N[C@@H](Cc1c[nH]c2ccccc12)C(=O)N[C@H](CC(C)C)C(=O)N[C@@H](Cc1c[nH]c2ccccc12)C(=O)N[C@H](CC(C)C)C(=O)N[C@@H](Cc1c[nH]c2ccccc12)C(=O)N[C@@H](C(=O)N[C@@H](Cc1c[nH]c2ccccc12)C(=O)NCCO)C(C)C)[C@H](C)O)C(C)C)C(C)C,Streptococcus pyogenes,,SSI-9,,,MIC,67 nM
CCN(C)C(C)CC(O)Cn1c2ccccc2c2ccccc21 (centres unmarked),Plasmodium,parasite growth,,,,IC50,12700 nM
CCn1c(C)c(CC(=O)N[C@@H](Cc2ccccc2)C(=O)N(C)c2ccc(F)cc2)c2ccccc21,HIV-1,viral replication,"TZM-GFP, wild type",,,EC50,220 ± 96 nM

# Some of these lines once more:
SMILES,target or system,test,test system,conditions,scale,measurement,result
CN1CCN(Cc2cccc(CC(O)Cn3c4ccc(Cl)cc4c4cc(Cl)ccc43)c2)CC1 (centres unmarked),Plasmodium,parasite growth,,,,IC50,82 nM
O=C(CCCCCONC(=O)c1ccc2cc[nH]c2c1)NO,Plasmodium falciparum,parasite growth,3D7,,,IC50,90 nM and < 100 nM
O=C(Cc1ccc(Br)cc1)N[C@H]1CCOC1=O,Pseudomonas aeruginosa,biofilm formation,PAO1,50 µM,,inhibition,40%
NS(=O)(=O)c1nnc(NC(=O)c2ccccc2)s1,Enterococcus faecium,,HM-965,,,MIC,5200 nM
